Measured values from different studies.
Compare with care: the assays were run in different laboratories. pIC50: −log10 of the molar value.
Cell line: SNB-19

With `O=c1ccn(Cc2cn(-c3c4ccccc4nc4ccccc34)nn2)c(=O)[nH]1` the growth percentage was 94.1% (10 µM, CNS cancer cell line, NCI60).
`CCCN1CCN(c2ccc3[nH]c(-c4ccc5[nH]c(-c6ccc(C(F)(F)F)cc6)nc5c4)nc3c2)CC1` has a growth percent of -93.8% (SRB; 10 µM, 48 h).
For `O=c1ccn(Cc2cn(-c3cc4ccccc4oc3=O)nn2)c(=O)[nH]1`, the growth percentage was 101% (10 µM, CNS cancer cell line, NCI60).
`COc1ccc(OC)c(-c2nc3ccc(-c4nc5ccc(N6CCN(C)CC6)cc5[nH]4)cc3[nH]2)c1` has a growth percent of 103% (SRB; 10 µM, 48 h).
The cell growth of `Cc1cc(C)n(-c2nc(-c3ccc(Cl)cc3)c3c(NC(=O)c4ccccc4)nnc-3[nH]2)n1` is reported as 86.9% (SRB; 10 µM, NCI60 single-dose screen; baseline: untreated).
With `CCCCN1CCN(c2ccc3nc(-c4ccc5nc(-c6cc(OC)ccc6OC)[nH]c5c4)[nH]c3c2)CC1` the growth percent was 103% (SRB; 10 µM, 48 h).
The cell growth of `O=C(Nc1nnc2n3c(Cc4ccccc4)n[nH]c3nc(-c3ccc(Cl)cc3)c1-2)c1ccccc1` is reported as 92.1% (SRB; 10 µM, NCI60 single-dose screen; baseline: untreated).
`Cn1cncc1C1=CN(c2ncnc3[nH]cnc23)CCS1` has a GI50 of 44.7 µM (CNS cancer).
`CSc1nc(-c2ccc(Cl)cc2)c2c(NC(=O)c3ccccc3)nnc-2[nH]1` has a cell growth of 85.2% (SRB; 10 µM, NCI60 single-dose screen; baseline: untreated).
For `C#C[C@@]1(O)[C@@H](CO)O[C@@H](n2cc(Cl)c3c(N)ncnc32)[C@@H]1O`, the TGI was 0.294 µM (SRB; NCI-60 screen).
With `NNc1nc(-c2ccc(Cl)cc2)c2c(NC(=O)c3ccccc3)nnc-2[nH]1` the cell growth was 93.8% (SRB; 10 µM, NCI60 single-dose screen; baseline: untreated).
For `CCCCN1CCN(c2ccc3[nH]c(-c4ccc5[nH]c(-c6ccc(OCC)c(OCC)c6)nc5c4)nc3c2)CC1`, the growth percent was -28.8% (SRB; 10 µM, 48 h).
For `C#C[C@@]1(O)[C@@H](CO)O[C@@H](n2ccc3c(N)ncnc32)[C@@H]1O`, the TGI was 6.6 µM (SRB; NCI-60 screen).
The TGI of `CCN(CC)c1ccc(C=NNC(=O)CSc2nc3ccccc3c(=O)n2Cc2ccc(S(N)(=O)=O)cc2)c(O)c1` is reported as greater than 100 µM (NCI five-dose screen).
`O=C1NC(c2ccccc2)(c2ccccc2)C(=O)N1Cc1cn(-c2c3ccccc3nc3ccccc23)nn1` gave a growth percentage of 89.4% (10 µM, CNS cancer cell line, NCI60).
`O=C1NCCc2[nH]c(-c3ccncc3)cc21` has a pIC50 of less than 5.00 (MTS; NCI60 panel).
The cell growth of `Cc1n[nH]c2nc(-c3ccc(Cl)cc3)c3c(NC(=O)c4ccccc4)nnc-3n12` is reported as 89.3% (SRB; 10 µM, NCI60 single-dose screen; baseline: untreated).
For `O=C1NC(c2ccccc2)(c2ccccc2)C(=O)N1Cc1cn(-c2cc3ccccc3oc2=O)nn1`, the growth percentage was 87.9% (10 µM, CNS cancer cell line, NCI60).
`CCCCN1CCN(c2ccc3[nH]c(-c4ccc5[nH]c(-c6cc(OC)c(OC)c(OC)c6)nc5c4)nc3c2)CC1` gave a growth percent of 71.9% (SRB; 10 µM, 48 h).

Repeated from above:
For `CCCCN1CCN(c2ccc3[nH]c(-c4ccc5[nH]c(-c6ccc(OCC)c(OCC)c6)nc5c4)nc3c2)CC1`, the growth percent was -28.8% (SRB; 10 µM, 48 h).
With `NNc1nc(-c2ccc(Cl)cc2)c2c(NC(=O)c3ccccc3)nnc-2[nH]1` the cell growth was 93.8% (SRB; 10 µM, NCI60 single-dose screen; baseline: untreated).
